Measurements collected from several papers.
Values joined by “and” are separate records of one study, mostly repeats; a detail may differ. Converted amounts (≈) assume the structure as drawn.
UniProt Q9BUB5, sequence (whole entry, looked up): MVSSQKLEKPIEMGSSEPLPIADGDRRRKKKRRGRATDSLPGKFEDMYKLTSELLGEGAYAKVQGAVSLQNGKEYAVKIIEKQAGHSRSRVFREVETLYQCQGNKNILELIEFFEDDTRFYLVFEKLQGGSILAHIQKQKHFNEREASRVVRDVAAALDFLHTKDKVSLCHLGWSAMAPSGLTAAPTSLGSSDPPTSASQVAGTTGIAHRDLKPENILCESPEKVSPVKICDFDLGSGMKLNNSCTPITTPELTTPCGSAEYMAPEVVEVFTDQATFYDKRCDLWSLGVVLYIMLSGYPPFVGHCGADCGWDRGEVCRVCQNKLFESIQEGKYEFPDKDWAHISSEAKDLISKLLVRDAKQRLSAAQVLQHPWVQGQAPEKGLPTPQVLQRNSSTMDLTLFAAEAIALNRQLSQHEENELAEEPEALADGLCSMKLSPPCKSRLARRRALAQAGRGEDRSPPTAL
UniProt Q9H2X6, sequence (whole entry, looked up): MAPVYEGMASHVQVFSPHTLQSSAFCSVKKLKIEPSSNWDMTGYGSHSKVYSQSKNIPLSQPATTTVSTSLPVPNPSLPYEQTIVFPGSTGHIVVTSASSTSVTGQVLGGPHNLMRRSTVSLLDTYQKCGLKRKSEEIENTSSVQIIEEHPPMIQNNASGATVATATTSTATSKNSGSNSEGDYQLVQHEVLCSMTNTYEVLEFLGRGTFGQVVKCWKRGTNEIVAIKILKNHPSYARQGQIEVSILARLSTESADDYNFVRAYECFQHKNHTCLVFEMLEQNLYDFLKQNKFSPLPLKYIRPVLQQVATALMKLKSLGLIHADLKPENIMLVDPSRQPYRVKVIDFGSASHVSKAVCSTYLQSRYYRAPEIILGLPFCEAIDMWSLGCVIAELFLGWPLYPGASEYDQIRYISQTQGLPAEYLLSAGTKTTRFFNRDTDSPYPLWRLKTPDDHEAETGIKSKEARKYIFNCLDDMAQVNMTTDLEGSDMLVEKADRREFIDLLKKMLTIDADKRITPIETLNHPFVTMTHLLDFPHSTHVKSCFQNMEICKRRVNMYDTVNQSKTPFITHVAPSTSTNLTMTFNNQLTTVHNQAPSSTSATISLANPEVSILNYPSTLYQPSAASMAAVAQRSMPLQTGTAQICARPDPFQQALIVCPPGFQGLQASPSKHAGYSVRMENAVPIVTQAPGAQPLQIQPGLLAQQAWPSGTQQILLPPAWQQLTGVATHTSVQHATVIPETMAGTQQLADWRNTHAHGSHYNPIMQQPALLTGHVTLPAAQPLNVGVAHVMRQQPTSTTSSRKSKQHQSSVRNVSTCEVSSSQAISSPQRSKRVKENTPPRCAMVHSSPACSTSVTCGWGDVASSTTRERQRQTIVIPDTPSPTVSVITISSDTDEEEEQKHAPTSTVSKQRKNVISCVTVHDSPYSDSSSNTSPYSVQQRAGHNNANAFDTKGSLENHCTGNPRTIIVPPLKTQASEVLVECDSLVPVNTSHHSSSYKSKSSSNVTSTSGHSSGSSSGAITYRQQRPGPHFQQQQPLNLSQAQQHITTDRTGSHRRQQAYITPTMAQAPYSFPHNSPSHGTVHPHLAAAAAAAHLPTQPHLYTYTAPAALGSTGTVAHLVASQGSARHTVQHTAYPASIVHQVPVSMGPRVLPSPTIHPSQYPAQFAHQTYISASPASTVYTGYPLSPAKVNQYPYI
UniProt Q9P286, sequence (whole entry, looked up): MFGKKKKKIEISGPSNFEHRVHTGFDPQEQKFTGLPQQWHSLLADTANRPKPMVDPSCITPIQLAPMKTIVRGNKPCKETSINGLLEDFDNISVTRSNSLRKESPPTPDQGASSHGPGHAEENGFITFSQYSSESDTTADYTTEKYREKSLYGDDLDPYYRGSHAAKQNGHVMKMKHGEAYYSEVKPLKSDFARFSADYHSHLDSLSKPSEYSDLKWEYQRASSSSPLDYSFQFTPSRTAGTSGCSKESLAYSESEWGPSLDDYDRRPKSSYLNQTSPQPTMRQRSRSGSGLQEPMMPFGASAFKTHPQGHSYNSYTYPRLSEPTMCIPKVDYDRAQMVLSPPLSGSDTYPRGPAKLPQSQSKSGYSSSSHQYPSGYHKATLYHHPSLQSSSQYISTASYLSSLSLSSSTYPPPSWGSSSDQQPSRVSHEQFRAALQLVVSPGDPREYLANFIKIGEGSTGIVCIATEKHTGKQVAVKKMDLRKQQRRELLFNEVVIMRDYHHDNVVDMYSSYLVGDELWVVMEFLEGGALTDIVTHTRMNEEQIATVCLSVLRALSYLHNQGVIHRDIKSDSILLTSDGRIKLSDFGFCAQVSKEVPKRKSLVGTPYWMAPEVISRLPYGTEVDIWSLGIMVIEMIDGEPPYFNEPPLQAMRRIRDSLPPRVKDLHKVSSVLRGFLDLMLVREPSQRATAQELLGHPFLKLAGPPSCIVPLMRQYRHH

SMILES	target or system	assay	test system	conditions	quantity	result
COc1ccc2[nH]c3c4[nH]c5ccc(OC)cc5c4c4c(c3c2c1)C(=O)NC4=O	Trypanosoma brucei	parasite growth			EC50	0.631 µM
CCS(=O)(=O)Oc1ccc(C=NNC(=O)CSc2nc3ccc(Cl)cc3c(=O)n2-c2ccccc2)cc1OC	Bacillus cereus	microbial growth, well diffusion		20 µg/mL	inhibition zone	3 mm
COc1cc(-c2cc(=O)c3c(O)cc(O)cc3o2)ccc1O	Helicobacter pylori	microbial growth, broth dilution		125 µg/mL	inhibition	100%
Cc1cc(C)c(C#N)c(SCC(=O)c2ccsc2)n1	Leishmania infantum	parasite growth	mouse Macrophage	intracellular, amastigote	EC50	> 64 µM
CC1(C)CC[C@]2(NC(=O)NCc3cccnc3)CC[C@]3(C)C(=CC[C@@H]4[C@@]5(C)CC[C@@H]6OC(C)(C)OC[C@@]6(C)[C@@H]5CC[C@]43C)[C@@H]2C1	Leishmania mexicana	parasite growth, resazurin		50 µM, amastigote	inhibition	95%
COc1ccc(-c2cc(=O)c3c(O)cc(O[C@@H]4O[C@H](CO)[C@@H](O)[C@H](O)[C@H]4O)cc3o2)cc1O	Helicobacter pylori	microbial growth, broth dilution		125 µg/mL	inhibition	100%
CC(C)[C@@H]1NC(=O)[C@@H](CCCNC(=N)N)NC(=O)[C@H]([C@@H](C)O)NC(=O)[C@@H](CCCCN)NC(=O)[C@H](Cc2ccccc2)NC(=O)[C@@H](Cc2ccccc2)NC1=O	Balamuthia mandrillaris	parasite growth, ATP luminescence		72 h	IC50	≤ 5 µM
CCCN1CCCC(c2ccc(Nc3nc(Nc4cc(F)ccc4C(N)=O)c4cc[nH]c4n3)c(OC)c2)C1 (stereo not shown)	Trypanosoma brucei	parasite growth			EC50	0.1 µM
CC1(C)CC[C@]2(C(=O)OCc3ccccc3)CC[C@]3(C)C(=CC[C@@H]4[C@@]5(C)CC[C@H](O)[C@@](C)(CO)[C@@H]5CC[C@]43C)[C@@H]2C1	Leishmania mexicana	parasite growth, resazurin		50 µM, amastigote	inhibition	95.4%
C=C[C@@]1(C)C=C2CC[C@@H]3[C@](C)(CCC[C@@]3(C)C(=O)O)[C@H]2CC1	Helicobacter pylori	microbial growth, broth dilution		0.24 µg/mL	inhibition	9.35%
C=C[C@]1(C)C[C@@H](OC(=O)CS[C@@H]2C[C@H]3CC[C@@H](C2)N3C)[C@]2(C)[C@H](C)CC[C@]3(CCC(=O)[C@H]32)[C@@H](C)[C@@H]1O	Streptococcus viridans	microbial growth		clinical isolate	MIC90	0.0312 µg/mL (≈ 0.0604 µM)
CC1(C)CC[C@]2(NC(=O)N3CCCNCC3)CC[C@]3(C)C(=CC[C@@H]4[C@@]5(C)CC[C@@H]6OC(C)(C)OC[C@@]6(C)[C@@H]5CC[C@]43C)[C@@H]2C1	Leishmania mexicana	parasite growth, resazurin		50 µM, amastigote	inhibition	95.9%
CN[C@H](CC(C)C)C(=O)N[C@H]1C(=O)N[C@@H](CC(N)=O)C(=O)N[C@H]2C(=O)N[C@H]3C(=O)N[C@H](C(=O)N[C@H](C(=O)O)c4cc(O)cc(O)c4-c4cc3ccc4O)[C@H](O)c3ccc(c(Cl)c3)Oc3cc2cc(c3O[C@@H]2O[C@H](CO)[C@@H](O)[C@H](O)[C@H]2O[C@H]2C[C@](C)(N)[C@H](O)[C@H](C)O2)Oc2ccc(cc2Cl)[C@H]1O	Streptococcus viridans	microbial growth		clinical isolate	MIC90	0.5 µg/mL (≈ 0.345 µM)
CN(Cc1ccc(C2(C(F)(F)F)CC2)cc1)Cc1cccc2ccccc12	Trichophyton mentagrophytes	microbial growth, disc diffusion	ATCC18748	0.016 µg/mL, 72 h	inhibition zone	34 mm
COc1ccnc(-c2nc3ccc(OC)cn3c2Nc2ccc(F)cc2)c1	Leishmania infantum	parasite growth		intracellular, amastigote	IC50	0.79 µM and 2.16 µM
CN(Cc1ccc(C(C)(C)C)cc1)Cc1cccc2ccccc12	Trichophyton mentagrophytes	microbial growth, disc diffusion	ATCC18748	0.00025 µg/mL, 72 h	inhibition zone	0 mm
CCCCN(Cc1c(-c2ccccn2)nc2ccc(C)cn12)c1ccc(F)cc1	Leishmania infantum	parasite growth		intracellular, amastigote	EC50	10 µM
CC[C@H]1OC(=O)[C@H](C)[C@@H](O[C@H]2C[C@@](C)(OC)[C@@H](O)[C@H](C)O2)[C@H](C)[C@@H](O[C@@H]2O[C@H](C)C[C@H](N(C)C)[C@H]2O)[C@](C)(OC)C[C@@H](C)C(=O)[C@H](C)[C@@H](O)[C@]1(C)O	Helicobacter pylori	microbial growth, broth dilution		125 µg/mL	inhibition	100%
CC1(C)CC[C@]2(C(=O)O)CC[C@]3(C)C(=CC[C@@H]4[C@@]5(C)CC[C@@H]6O[C@H]([C@H](O)[C@@H](O)[C@H](O)[C@H](O)CO)OC[C@@]6(C)[C@@H]5CC[C@]43C)[C@@H]2C1	Leishmania mexicana	parasite growth, resazurin		50 µM, amastigote	inhibition	96.2%
CC(C)(C)OC(=O)N[C@@H]1CCN(c2cc(C(=O)NCC(=O)O)ccc2NC(=O)c2cc(Br)c(Br)[nH]2)C1	Klebsiella aerogenes	microbial growth, broth dilution	ATCC13408		MIC	> 32 µg/mL
COc1ccn2c(Nc3ccccc3F)c(-c3ccncn3)nc2c1	Leishmania infantum	parasite growth		intracellular, amastigote	EC50	10 µM
CC1(C)CC[C@]2(NC(=O)N3CCC[C@H]3C(=O)O)CC[C@]3(C)C(=CC[C@@H]4[C@@]5(C)CC[C@@H]6OC(C)(C)OC[C@@]6(C)[C@@H]5CC[C@]43C)[C@@H]2C1	Leishmania mexicana	parasite growth, resazurin		50 µM, amastigote	inhibition	96%
CCCCC(=O)Nc1ccc(-c2ccc3ncn(CCC)c(=O)c3c2)cn1	PAK5 (Homo sapiens, UniProt Q9P286)	binding, competition with immobilised ligand		0.5 µM	remaining binding	90%
Cc1cc(C)c(C#N)c(SCC(=O)c2ccc(F)cc2F)n1	Leishmania infantum	parasite growth	mouse Macrophage	intracellular, amastigote	EC50	32 µM
O=c1cc(-c2ccc(O)c(O)c2)oc2cc(O)cc(O)c12	Helicobacter pylori	microbial growth, broth dilution		125 µg/mL	inhibition	100%
N#Cc1cccc(Nc2ncc(-c3ccccc3)o2)c1	Trypanosoma brucei	parasite growth			EC50	1.58 µM

SMILES	target or system	assay	test system	conditions	quantity	result
COC(=O)[C@]12CCC(C)(C)C[C@H]1C1=CC[C@@H]3[C@@]4(C)CC[C@H](O)[C@@](C)(CO)[C@@H]4CC[C@@]3(C)[C@]1(C)CC2	Leishmania mexicana	parasite growth, resazurin		50 µM, amastigote	inhibition	97.2%
CNc1ccnc(SCC(=O)c2ccccc2)c1C#N	Trypanosoma brucei	parasite growth, resazurin	RHODESIENSE		EC50	> 64 µM
C=CC(=O)N1CCC(COCC(=O)N2CCN(c3nc(-c4cnc(N)nc4C(F)F)nc(N4CCOC[C@@H]4C)n3)CC2)CC1	HIPK2 (Homo sapiens, UniProt Q9H2X6)	binding, competition with immobilised ligand		1 µM	remaining binding	75%
CC(=O)OC[C@@]1(C)[C@@H]2CC[C@]3(C)[C@H](CC=C4[C@@H]5CC(C)(C)CC[C@]5(NC(=O)N5CCN(C)CC5)CC[C@]43C)[C@@]2(C)CC[C@@H]1O[C@@H]1OC[C@H](OC(C)=O)[C@H](OC(C)=O)[C@H]1O[C@@H]1O[C@@H](C)[C@H](OC(C)=O)[C@@H](OC(C)=O)[C@H]1OC(C)=O	Leishmania mexicana	parasite growth, resazurin		50 µM, amastigote	inhibition	98.3%
O=C(O[C@@H]1O[C@@H]2COC(=O)c3cc(O)c(O)c(O)c3-c3c(cc(O)c(O)c3O)C(=O)O[C@H]([C@H]1O)[C@@H]2O)c1cc(O)c(O)c(O)c1	Streptococcus mutans	microbial growth, disc diffusion		500 µg/disc	inhibition zone	15 mm
Cc1cc(C)c(C#N)c(SCC(=O)c2ccncc2)n1	Trypanosoma brucei	parasite growth, resazurin	RHODESIENSE		EC50	> 64 µM
CC(C)[C@@H]1NC(=O)[C@@H](CCCNC(=N)N)NC(=O)[C@H]([C@@H](C)O)NC(=O)[C@@H](CN)NC(=O)[C@H](Cc2ccccc2)NC(=O)[C@@H](Cc2ccccc2)NC1=O	Balamuthia mandrillaris	parasite growth, ATP luminescence			IC90	> 20 µM
CNc1ncc2c(/C=C/C(=O)N3CCC(OC)CC3)nn(Cc3cccc(C(F)(F)F)c3)c2n1	MKNK1 (Homo sapiens, UniProt Q9BUB5)	enzyme activity, inhibitor, radiometric		1 µM	remaining activity	97%
NS(=O)(=O)c1ccc(N/N=C2\C(=O)Nc3ccc(-c4cnco4)cc32)cc1	Trypanosoma brucei	parasite growth			EC50	0.398 µM
Cc1cc(C)c(C#N)c(NCC(=O)c2ccc(F)cc2)n1	Trypanosoma brucei	parasite growth, resazurin	RHODESIENSE		EC50	48.5 µM
[2H]C([2H])([2H])N(c1ccc(F)cc1)c1c(-c2ccccn2)nc2ccccn12	Leishmania infantum	parasite growth		intracellular, amastigote	IC50	1.29 µM
CC(C)[C@@H]1NC(=O)[C@@H](Cc2c[nH]c3ccccc23)NC(=O)[C@H]([C@@H](C)O)NC(=O)[C@@H](CCCCN)NC(=O)[C@H](Cc2ccccc2)NC(=O)[C@@H](Cc2ccccc2)NC1=O	Balamuthia mandrillaris	parasite growth, ATP luminescence			IC90	> 20 µM
Cn1nnc(-c2cccnc2SCC(=O)c2ccc(F)cc2)n1	Leishmania infantum	parasite growth	mouse Macrophage	intracellular, amastigote	EC50	> 64 µM
COc1ccc(-c2nc3ccc(OC)cn3c2N(C)c2ccc(F)cc2)nc1	Leishmania infantum	parasite growth		intracellular, amastigote	IC50	0.79 µM
CN1CCC(C(=O)Nc2n[nH]c3nc(-c4ccc(O)cc4)c(Br)cc23)CC1	Trypanosoma brucei	parasite growth			EC50	0.251 µM
CC(C)[C@@H]1NC(=O)[C@@H](CO)NC(=O)[C@@H](CCCNC(=N)N)NC(=O)[C@H](Cc2ccccc2)NC1=O	Balamuthia mandrillaris	parasite growth, ATP luminescence			IC50	> 16 µg/mL
CCc1ccc(C(=O)CSc2nc(C)cc(C)c2C#N)cc1	Trypanosoma brucei	parasite growth, resazurin	RHODESIENSE		EC50	55.1 µM
CC1(C)CC[C@]2(C(=O)O)CC[C@]3(C)C(=CC[C@@H]4[C@@]5(C)CC[C@@H]6O[C@H]([C@H](O)[C@@H](O)[C@H](O)CO)OC[C@@]6(C)[C@@H]5CC[C@]43C)[C@@H]2C1	Leishmania mexicana	parasite growth, resazurin		50 µM, amastigote	inhibition	98.9%
COc1ccc(C(=O)CSc2nc(C)cc(C)c2C#N)cc1	Trypanosoma brucei	parasite growth, resazurin	RHODESIENSE		EC50	60.5 µM
COc1cc([C@H]2OC[C@H]3[C@@H]2CO[C@@H]3c2cc(OC)c(O)c(OC)c2)cc(OC)c1O	Helicobacter pylori	microbial growth, broth dilution		0.98 µg/mL	inhibition	100%
CC(C)[C@@H]1NC(=O)[C@@H](CCCNC(=N)N)NC(=O)[C@H]([C@@H](C)O)NC(=O)[C@@H](CCCN)NC(=O)[C@H](Cc2ccccc2)NC(=O)[C@@H](C)NC1=O	Balamuthia mandrillaris	parasite growth, ATP luminescence			IC90	> 20 µM
Cc1ccc2nc(-c3ccccc3)cn2c1	Leishmania infantum	parasite growth		intracellular, amastigote	IC50	> 64 µM
Cc1ccc(N(c2ccc(NC(=O)CN(C)c3ccccc3N3CCCC3=O)cc2)C(C)C)cc1	Plasmodium falciparum	parasite growth, SYBR Green	DD2	72 h, blood stage	EC90	0.009 µM
COC(=O)c1ccc(O)cc1	Helicobacter pylori	microbial growth, broth dilution		31.25 µg/mL	inhibition	100%
CN1CCN(CCCNc2nc3ccc(Oc4ccc(NC(=O)Nc5cc(C(F)(F)F)ccc5F)cc4)cc3[nH]2)CC1	Trypanosoma brucei	parasite growth			EC50	2 µM
COc1ccn2c(Nc3ccc(F)cc3)c(-c3ccccn3)nc2c1	Leishmania infantum	parasite growth		intracellular, amastigote	IC50	8.11 µM

Repeated from above:
SMILES	target or system	assay	test system	conditions	quantity	result
NS(=O)(=O)c1ccc(N/N=C2\C(=O)Nc3ccc(-c4cnco4)cc32)cc1	Trypanosoma brucei	parasite growth			EC50	0.398 µM
Cc1cc(C)c(C#N)c(NCC(=O)c2ccc(F)cc2)n1	Trypanosoma brucei	parasite growth, resazurin	RHODESIENSE		EC50	48.5 µM
[2H]C([2H])([2H])N(c1ccc(F)cc1)c1c(-c2ccccn2)nc2ccccn12	Leishmania infantum	parasite growth		intracellular, amastigote	IC50	1.29 µM
CC(C)[C@@H]1NC(=O)[C@@H](Cc2c[nH]c3ccccc23)NC(=O)[C@H]([C@@H](C)O)NC(=O)[C@@H](CCCCN)NC(=O)[C@H](Cc2ccccc2)NC(=O)[C@@H](Cc2ccccc2)NC1=O	Balamuthia mandrillaris	parasite growth, ATP luminescence			IC90	> 20 µM
Cn1nnc(-c2cccnc2SCC(=O)c2ccc(F)cc2)n1	Leishmania infantum	parasite growth	mouse Macrophage	intracellular, amastigote	EC50	> 64 µM
COc1ccc(-c2nc3ccc(OC)cn3c2N(C)c2ccc(F)cc2)nc1	Leishmania infantum	parasite growth		intracellular, amastigote	IC50	0.79 µM
CN1CCC(C(=O)Nc2n[nH]c3nc(-c4ccc(O)cc4)c(Br)cc23)CC1	Trypanosoma brucei	parasite growth			EC50	0.251 µM
CC(C)[C@@H]1NC(=O)[C@@H](CO)NC(=O)[C@@H](CCCNC(=N)N)NC(=O)[C@H](Cc2ccccc2)NC1=O	Balamuthia mandrillaris	parasite growth, ATP luminescence			IC50	> 16 µg/mL
